Assay results gathered from unrelated publications.
Each numbered part is a random draw from the data of one study; scales do not carry over between parts.
Chain of UniProt Q9C0B0 (30-357, looked up): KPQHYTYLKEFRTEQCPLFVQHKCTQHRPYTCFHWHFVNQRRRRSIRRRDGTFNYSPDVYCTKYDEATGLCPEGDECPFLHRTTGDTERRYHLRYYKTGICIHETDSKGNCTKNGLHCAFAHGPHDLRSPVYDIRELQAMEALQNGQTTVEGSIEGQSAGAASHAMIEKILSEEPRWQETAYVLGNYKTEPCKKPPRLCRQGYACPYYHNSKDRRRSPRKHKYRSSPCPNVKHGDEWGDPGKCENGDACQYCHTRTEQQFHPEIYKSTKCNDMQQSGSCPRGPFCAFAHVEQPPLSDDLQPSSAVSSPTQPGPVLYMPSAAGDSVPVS

Series 1 — method: RNA Bind-n-Seq; molecule type: RNA; matrix: in vitro; concentration: 200 nM; notes: whole 134-nt RNA, ends assumed; together with: 150 mM KCl; baseline: input library; direction: higher = stronger binding
Target: Fragile X messenger ribonucleoprotein 1, C-terminal low-complexity region (Fmr1, Mus musculus, UniProt P35922)
| Oligonucleotide | log2 enrichment |
| --- | --- |
| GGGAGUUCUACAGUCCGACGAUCACCAUGCAGGUGGGCAUCUUUGGGAAGUGGGGCAAGGGGGGGAUAGGGAGGGGGGUAACACUUUGGGAACAGGUGGUCCCAGUUCGUUUCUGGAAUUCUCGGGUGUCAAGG | 0.742 |
| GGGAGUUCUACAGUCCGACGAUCUGCUCUCCGUGCCACAUGCGCCCGCAGGUUACGCCAAGGAGGCCCUGAAUCUGGCGCAGAUGCAGGAGCAGACGCUGCAGUUGGAGCAACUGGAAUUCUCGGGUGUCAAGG | -2.42 |
| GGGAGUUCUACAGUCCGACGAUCUGGGAGGUGGAUUUUGUUUAUUCUUUUAGCUCAUUUCCAGGGGUGGGAAUUUUUUUUUAAUAUGUGUCAUGAAUAAAGUUGUUUUUGAAAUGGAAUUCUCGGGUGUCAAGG | 0.195 |
| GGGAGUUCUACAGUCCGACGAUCCCUGUGCUACACAUCGUAUGUACCGAAUCGGAAAAAAAGGGGAAAAAAAGGAAAAAAAGGGAAAGUAUUAUGUUACGCCGUUCGGAUCUGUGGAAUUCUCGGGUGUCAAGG | -0.876 |
| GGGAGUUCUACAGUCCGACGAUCUCAAGUCCUGUGCUACACAUCGUAUGUACCGAAUCGGGGCCGGGGCCGGGCCGGGAAAGUAUUAUGUUACGCCGUUCGGAUCUGCACUUCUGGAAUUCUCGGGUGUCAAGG | -0.0459 |
| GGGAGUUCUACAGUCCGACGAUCCAAGUCCUGUGCUACACAUCGUAUGUACCGAAUCGGGGUUUGGGGAGGGGUGGGGAAAGUAUUAUGUUACGCCGUUCGGAUCUGCACUUCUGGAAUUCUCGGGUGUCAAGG | 1.32 |
| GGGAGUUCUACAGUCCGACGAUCAAGUCCUGUGCUACACAUCGUAUGUACCGAAUCGGCCCCCGGCCCCCGGCCCCCGGAAAGUAUUAUGUUACGCCGUUCGGAUCUGCACUUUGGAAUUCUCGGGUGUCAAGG | -0.104 |
| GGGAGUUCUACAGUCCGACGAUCUCCUCAAGUCCUGUGCUACACAUCGUAUGUACCGAAUCGGAGGAGGGAGGGGAAAGUAUUAUGUUACGCCGUUCGGAUCUGCACUUCCAGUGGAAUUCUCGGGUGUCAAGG | 0.347 |
| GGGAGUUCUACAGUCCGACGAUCUCCUGUGCUACACAUCGUAUGUACCGAAUCGGGGAAAGGGGUUUUUUUGGGGUUUGGGGAAAGUAUUAUGUUACGCCGUUCGGAUCUGCAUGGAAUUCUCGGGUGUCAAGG | 0.9 |
| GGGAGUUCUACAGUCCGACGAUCAAGUCCUGUGCUACACAUCGUAUGUACCGAAUCGGGGUGGGGUUUUUGGGGAGGGGAAAGUAUUAUGUUACGCCGUUCGGAUCUGCACUUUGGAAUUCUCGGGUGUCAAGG | 1.1 |

Series 2 — method: protein-binding microarray; molecule type: double-stranded DNA, one strand shown; matrix: in vitro; concentration: not given; direction: higher = stronger binding
Target: Myc proto-oncogene protein, bHLH-zipper, MAX partner unstated (MYC, Homo sapiens, UniProt P01106, residues 368-449)
Chain of UniProt P01106 (368-449, looked up): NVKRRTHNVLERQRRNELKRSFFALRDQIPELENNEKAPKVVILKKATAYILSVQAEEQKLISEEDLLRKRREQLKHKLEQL
Notes: k-mer, scored over probes, only values ≥0.25
| Oligonucleotide | E-score |
| --- | --- |
| GCATACAC | 0.274 |
| GGCACGCC | 0.338 |
| ATGCACGC | 0.412 |
| ACTGCACG | 0.307 |
| CCCACGCA | 0.306 |
| CCATGAGG | 0.465 |
| ACGTGATC | 0.314 |
| CATGGGAG | 0.275 |
| CACGCTTC | 0.382 |
| GCGTGCCC | 0.401 |
| AGCACGAT | 0.294 |
| ACAACGCA | 0.259 |
| TCGTGGCA | 0.342 |
| CGCATGAG | 0.355 |
| CCTCGCCC | 0.292 |
| ACATGTTA | 0.316 |

Series 3 — method: RNA Bind-n-Seq; molecule type: RNA; matrix: in vitro; concentration: 365 nM; baseline: no-protein control; direction: higher = stronger binding
Target: RNA binding protein fox-1 homolog 2, RRM domain, GST-SBP tag (RBFOX2, Homo sapiens, UniProt O43251-10, residues 100-194)
Notes: natural RNA segment, single round, ends assumed
Construct (chain): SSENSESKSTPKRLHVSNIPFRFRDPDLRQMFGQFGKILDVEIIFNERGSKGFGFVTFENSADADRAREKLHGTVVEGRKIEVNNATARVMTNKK
| Oligonucleotide | RBNS enrichment (R) |
| --- | --- |
| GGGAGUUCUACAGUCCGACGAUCGCCGCUCUCUGUAAGUGUUUGCUUGUGCAAAAGGGAAUAGUGCCGUGGAGGUGUGUGUGUCCAUGGCAUCCGGAGCGAGGCGACUGUCCUGCGUGGGUAGCCCUCGGCCGUGGAAUUCUCGGGUGCCAA | 3 |
| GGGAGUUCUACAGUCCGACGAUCUUACAAUACCAAAAUCCACAAAAGCUACUUUAUUUUCAAAUAUGACAGAUAGUUUCCAGAGUACGCCAUGUAUAGCAAAGAACCCUGCCAUAGUUUUGACUCAGCCCCAUUGGAAUUCUCGGGUGCCAA | 0.963 |
| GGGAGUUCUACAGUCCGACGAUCCUGGCCCUCAGUGGGUAGGGCGGUGCUGCCUAGGCACACAGCAGCGCUUACGGGCCCCAGGUGCCUACUAGGCUGCCUUCCUCUUCCCCGCUGUCAGUCUGUGUCCUCCAUGGAAUUCUCGGGUGCCAA | 0.267 |
| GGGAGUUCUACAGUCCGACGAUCAUAACCAGUUCCAUCAUCCUGGUGGAACUUGAACAUUUAGAGUUUAUCUAGAGAGCUUGGUUAAUCUUUCCAUAUUAUUUGUAGUAUUGGUCACAAAUGCUGUUCCCUCUUGGAAUUCUCGGGUGCCAA | 0.252 |
| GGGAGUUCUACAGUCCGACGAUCUUAUUUUGUGGUUCUAUUUUACUUUGUACUUGUGUUUGCUUAAACAAAGUGACUGUUUGGCUUAUAAACACAUUGAAUGCGCUUUAUUGCCCAUGGGAUAUGUGGUGUAUUGGAAUUCUCGGGUGCCAA | 0.725 |
| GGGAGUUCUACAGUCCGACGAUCAGAAGUUCCUCUGCCUGGAGCUGUCAUCUCAGCCGCUCCCUUAGAAAGUGCCCUUCAACGGACCCUGUUCACUGCUGCACUUCUCAAUGAAUUAAAACUGACUUCUGUUCUGGAAUUCUCGGGUGCCAA | 0.324 |
| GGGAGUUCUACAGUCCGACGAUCCCAGUCCUUUGGGAGCCUGUCAGGAGACAAAGCUCAGGAUGCUGCUUGUGCUAGGAACACACCCUGCCCUCACUGCCCCACCUCCUGGGGCCCCACCGCCAUCGUCAGUCUGGAAUUCUCGGGUGCCAA | 0.303 |
| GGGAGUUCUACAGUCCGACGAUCGACAGGGGGGGUCAGCAGGAGGCUGGCUGCUUCCUGCCCUCCCCCCUCUCCCUGGGCCUACCAUGCUGCUUUUGUGCCAAGGUUAGCCAAUCCCUCCCUGCCCUAUCCUGUGGAAUUCUCGGGUGCCAA | 0.473 |
| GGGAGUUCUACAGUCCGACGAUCACUUUCUGUCAAGAUAUUUACCCGUGUCAAAUUCAAACUACAGUACUGUGUAAUUAUGUAUAAAGUUUUUUUAUUUAUUUGAAGUUAGACUAGAUAUACGUUUUUAAAUUUGGAAUUCUCGGGUGCCAA | 0.891 |
| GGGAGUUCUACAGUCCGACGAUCGGGCUAAGGUUUCCAGUCAGAUGAGGCAAACAGCAAGAGUAAGCAGUGUUACUUGCAGGUACUUUGGUUAAUGUUGAUUUAAAUUUUCAUGAAUGUGCUGGUGAACACUGUGGAAUUCUCGGGUGCCAA | 0.446 |
| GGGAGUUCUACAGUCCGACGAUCAGCAGAGGCAAACAGGUUUCUUGAGUUCAGGCCAGUCAGGUCUGCAUAAGGAGCUUUAGACCAGUCAAUGAUACAUAGUGAAACCCUACCUCAAAAACAAAACAAAAAAAUGGAAUUCUCGGGUGCCAA | 0.464 |
| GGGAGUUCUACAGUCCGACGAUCUUAAGGGCCGGGGAUGGAUCUUUUCUAAAUGUUAUUACUUGUAAAUAAAGUCUAUUUUUCUCCCGUGGUACUGAGUUGACUUGAUCGGUGUGGGAAAAAGAGGAAUAUAGUGGAAUUCUCGGGUGCCAA | 1.33 |

Series 4 — method: protein binding microarray; molecule type: double-stranded DNA, one strand shown; matrix: in vitro; concentration: not given; baseline: not given; direction: higher = stronger binding
Target: Histone acetyltransferase KAT6A, winged helix 1, GST fusion (KAT6A, Homo sapiens, UniProt Q92794, residues 1-85)
Notes: 8-mer, flanks averaged, mean of 2 arrays, mostly near background
Construct (chain): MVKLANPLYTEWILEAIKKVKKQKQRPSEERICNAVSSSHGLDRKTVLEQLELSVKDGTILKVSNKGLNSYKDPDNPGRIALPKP
| Oligonucleotide | E-score |
| --- | --- |
| GGCTCTCA | 0.101 |
| CACACTCA | -0.249 |
| AAAAAGGA | -0.279 |
| AAGATGAT | -0.213 |
| ACATGGAA | -0.171 |
| TACTCAGA | -0.0589 |
| GCTCGAGA | -0.0352 |
| AAAGATTG | -0.19 |
| AGCAAGCT | -0.283 |
| AGGACCTA | -0.0203 |
| CGACGCGC | 0.417 |
| AAAGTGCT | -0.14 |
| AGGGCGAT | -0.0679 |
| CATACACA | -0.125 |
| ATCGCCAG | -0.0196 |
| ACTCCTCA | -0.186 |
| AACTGGCT | -0.258 |
| AAGAAGGA | -0.191 |
| CAATCGAG | -0.158 |
| ATTTCCGA | -0.0554 |
| AAGCCATA | -0.0854 |
| CGCGGACC | 0.378 |
| AAATACCA | -0.252 |
| ACCAGAAC | -0.14 |
| AAAACTGG | -0.144 |

Other studies, line by line
| Oligonucleotide | target | test | test system | conditions | how to read | endpoint | result |
| --- | --- | --- | --- | --- | --- | --- | --- |
| GGGAGUUCUACAGUCCGACGAUCUCCUCAACUUGUUCCCGCUUGUGAUCCCUCAAAGUUGGGUCAUACGUCCGUGCCCGAUACCCGAAAUUUUCACUUUUCCACUGAUCAGAGAGACAGACAUUAAAAACAAAAACCGAAGAACAACAGAGGAUUGAGCAUCA | RING finger protein unkempt homolog, zinc fingers 1-6, SBP tag (UNK, Homo sapiens, UniProt Q9C0B0, residues 30-357) | RNA Bind-n-Seq | RNA, in vitro | 100 nM, RNA with constant flanks, ends assumed | baseline: input RNA pool, higher = stronger binding | bound/input enrichment | 0.276 ratio |
